Measurements gathered from unrelated publications.
A part holds a random share of what one study measured. Substitutions count along the parent as printed.

Sample 1 — method: RNA Bind-n-Seq; molecule type: RNA; sample: in vitro; tested at: 200 nM; setting: whole 134-nt RNA, ends assumed; together with: 150 mM LiCl; relative to: input library; direction: higher = stronger binding; quantity: log2 enrichment; library: 7-deaza-guanosine replaces G
Target: Fragile X messenger ribonucleoprotein 1, C-terminal low-complexity region (Fmr1, Mus musculus, UniProt P35922)
Constant ends, left off below: GGGAGUUCUACAGUCCGACGAUC … UGGAAUUCUCGGGUGUCAAGG
ACCAUGCAGGUGGGCAUCUUUGGGAAGUAAAGCAAGGGGGGGAUAGGGAGGGGGGUAACACUUUGGGAACAGGUGGUCCCAGGUCGUUUC: 1.19
CCUCAAGUCCUGUGCUACACAUCGUAUGUACCGAAUCGGCGGGGCGGCGGGGAAAGUAUUAUGUUACGCCGUUCGGAUCUGCACUUCCAG: -0.116
UCAAGUCCUGUGCUACACAUCGUAUGUACCGAAUCGGGGCCGGCCGGGGCCGGGAAAGUAUUAUGUUACGCCGUUCGGAUCUGCACUUCC: 0.00651
CAGAACGAUCGAUACAGAAACCACGCUGCCGCCACCACACCAUCACCAUCGACAGAACAGUCCUUAAUCCAGAAACCUGAAAUGAAGGAA: 1.23
AGUCCUGUGCUACACAUCGUAUGUACCGAAUCGGGGAAAGGGGAGGGGUUUUUGGGGAAAGUAUUAUGUUACGCCGUUCGGAUCUGCACU: -0.321
CAAGUCCUGUGCUACACAUCGUAUGUACCGAAUCGGUGGAAAAAGGUUUUUUUGGAAAGUAUUAUGUUACGCCGUUCGGAUCUGCACUUC: -1.83
CUGUGCUACACAUCGUAUGUACCGAAUCGGGGUUUUUGGGGAAAAAAAGGGGAAAAAGGGGAAAGUAUUAUGUUACGCCGUUCGGAUCUG: -0.492
GUGCUACACAUCGUAUGUACCGAAUCGGGGUUUUUUUGGGGAAAAAAAGGGGUUUUUUUGGGGAAAGUAUUAUGUUACGCCGUUCGGAUC: -2.61

Sample 2 — method: protein binding microarray; molecule type: double-stranded DNA, one strand shown; sample: in vitro; tested at: not given; relative to: not given; direction: higher = stronger binding; quantity: E-score
Target: Histone acetyltransferase KAT6A, both winged helices, GST fusion (KAT6A, Homo sapiens, UniProt Q92794, residues 1-181)
Setting: 8-mer, flanks averaged, mean of 2 arrays, mostly near background
Residues (chain): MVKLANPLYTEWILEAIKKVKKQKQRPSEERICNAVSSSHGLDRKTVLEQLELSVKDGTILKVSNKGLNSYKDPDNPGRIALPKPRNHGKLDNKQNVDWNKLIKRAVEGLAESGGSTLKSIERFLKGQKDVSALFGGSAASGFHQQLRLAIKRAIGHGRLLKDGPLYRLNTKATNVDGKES
ACAGCTTA: -0.051
AAGGTGGG: -0.226
AGCCACAA: -0.0978
GCGGAGCA: 0.0935
ATCGAGTC: -0.0632
AGCGGAAC: 0.27
ACGAGTCT: -0.122
AACTGAAA: 0.00662
GACGTTTA: 0.107
ACACGTCT: -0.0335
GCGCGATA: 0.307
CAGTTGCG: 0.0476
GAGATGCC: 0.0139
ACATCGAC: -0.0204
AACCTGTC: -0.0446
AAGTACAG: -0.264
TCTTAGCA: -0.129
ATGCGTTC: 0.117
CCGAAGAG: 0.0804
AACCCGGC: 0.296

Sample 3 — target: CCNB1, cyclin fold, Cln2 fusion (human); method: yeast growth competition, sequencing; sample: yeast; setting: strong parent motif; relative to: not given; direction: higher = stronger binding; quantity: normalised enrichment score
Parent: BRCA2 docking peptide (human); PSIKRNLLNEFDR; partner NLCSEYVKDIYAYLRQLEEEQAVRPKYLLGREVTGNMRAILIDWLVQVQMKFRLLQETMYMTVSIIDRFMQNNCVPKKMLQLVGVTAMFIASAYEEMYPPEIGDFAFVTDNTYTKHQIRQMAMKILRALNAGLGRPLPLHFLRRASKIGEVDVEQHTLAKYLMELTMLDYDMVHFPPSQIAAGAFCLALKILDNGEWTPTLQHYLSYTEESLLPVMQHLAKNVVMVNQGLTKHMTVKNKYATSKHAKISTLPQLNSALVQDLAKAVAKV
PSIKRNLLNEFDN [R13N]: 3.11
PSIKRNLLNEFDK [R13K]: 2.25
MSIKRNLLNEFDR [P1M]: 2
PSIKRNLLNEFDD [R13D]: 3.21
PSIKRNLLNDFDR [E10D]: 3.31
PSIKRNLFNEFDR [L8F]: 2.67
PSIQRNLLNEFDR [K4Q]: 1.73
PSIKRNLENEFDR [L8E]: 1.09
PSIKRNLLLEFDR [N9L]: 2.63
PHIKRNLLNEFDR [S2H]: 1.07
PSIKRNLLNEFDY [R13Y]: 2.58
PQIKRNLLNEFDR [S2Q]: 2.38
PSIKRNLLNEFAR [D12A]: 1.89
SSIKRNLLNEFDR [P1S]: 2.71
PSIKINLLNEFDR [R5I]: 1.87
PKIKRNLLNEFDR [S2K]: 1.98
PSIKRNLLNHFDR [E10H]: 0.516
PSIIRNLLNEFDR [K4I]: 2.9
PSIKANLLNEFDR [R5A]: 0.172
PSIKPNLLNEFDR [R5P]: -0.1
PSIKRNLLNETDR [F11T]: 0.83
PSIKRNLLNEFSR [D12S]: 1.8
PSIKRYLLNEFDR [N6Y]: 0.335
YSIKRNLLNEFDR [P1Y]: 2.61
PSIKRNLLNEFYR [D12Y]: 1.29

Sample 4 — method: universal PBM; molecule type: double-stranded DNA, one strand shown; sample: in vitro; tested at: 600 nM; direction: higher = stronger binding; quantity: E-score
Target: Sal-like protein 4, full length isoform A (SALL4, Homo sapiens, UniProt Q9UJQ4, residues 1-1053)
Sequence of UniProt Q9UJQ4 (whole entry, looked up): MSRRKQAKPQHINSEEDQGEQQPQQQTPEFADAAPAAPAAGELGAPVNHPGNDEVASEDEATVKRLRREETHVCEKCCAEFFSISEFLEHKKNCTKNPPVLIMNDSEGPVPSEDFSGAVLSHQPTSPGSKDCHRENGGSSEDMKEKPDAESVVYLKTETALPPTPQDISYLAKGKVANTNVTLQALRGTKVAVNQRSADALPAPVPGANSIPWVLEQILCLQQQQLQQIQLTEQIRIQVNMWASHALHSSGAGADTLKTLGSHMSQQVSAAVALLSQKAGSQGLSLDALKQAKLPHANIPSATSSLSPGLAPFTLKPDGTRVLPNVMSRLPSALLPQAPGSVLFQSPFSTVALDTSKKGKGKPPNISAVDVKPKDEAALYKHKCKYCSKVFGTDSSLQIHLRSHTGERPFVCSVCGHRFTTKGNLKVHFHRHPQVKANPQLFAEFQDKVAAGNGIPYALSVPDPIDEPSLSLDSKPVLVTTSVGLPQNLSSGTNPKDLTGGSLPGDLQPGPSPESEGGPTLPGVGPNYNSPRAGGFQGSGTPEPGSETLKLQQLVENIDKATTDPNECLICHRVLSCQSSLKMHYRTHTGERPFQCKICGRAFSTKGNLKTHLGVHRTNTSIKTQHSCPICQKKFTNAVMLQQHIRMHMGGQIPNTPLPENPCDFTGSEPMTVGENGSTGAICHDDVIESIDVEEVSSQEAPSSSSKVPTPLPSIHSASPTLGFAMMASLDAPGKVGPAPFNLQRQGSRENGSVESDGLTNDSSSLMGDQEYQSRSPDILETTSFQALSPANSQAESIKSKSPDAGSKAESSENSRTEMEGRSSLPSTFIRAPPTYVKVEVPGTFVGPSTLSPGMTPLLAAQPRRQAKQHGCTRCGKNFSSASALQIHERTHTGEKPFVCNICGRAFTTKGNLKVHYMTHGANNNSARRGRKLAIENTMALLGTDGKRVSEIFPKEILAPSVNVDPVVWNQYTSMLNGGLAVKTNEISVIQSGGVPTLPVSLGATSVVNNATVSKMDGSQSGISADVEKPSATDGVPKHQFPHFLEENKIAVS
Setting: 8-mer, flanks averaged, mean of replicates
GCACATAA: 0.183
TACACCTA: 0.158
ATGTAGCC: -0.0324
ATTGAGCC: 0.0426
AGAAGAGC: -0.0335
TGAGGACA: 0.0958
ACGCCCGC: -0.352
GTACACAC: 0.0803
ATCACAAC: 0.207
TATCCGGA: -0.0464
AAGTCCGT: -0.121
GGGGACGA: -0.165
AAAGCCGC: -0.178
GAAACGTC: -0.122
AGAAAGCT: 0.0113
ACCGCAAA: -0.00634
AGACACCG: -0.245
GGGAGTAA: 0.0841
ACATGGGC: -0.169
CCGTCTGC: -0.372
ACAGGATA: 0.141
CCCGTGGC: -0.386
TACCAGGA: -0.0397
ATCCATCA: 0.0609
CGGATTTA: -0.00771

Sample 5 — method: RNA Bind-n-Seq; molecule type: RNA; sample: in vitro; tested at: 365 nM; relative to: no-protein control; direction: higher = stronger binding; quantity: RBNS enrichment (R)
Target: RNA binding protein fox-1 homolog 2, RRM domain, GST-SBP tag (RBFOX2, Homo sapiens, UniProt O43251-10, residues 100-194)
Setting: natural RNA segment, single round, ends assumed
Constant ends, left off below: GGGAGUUCUACAGUCCGACGAUC … UGGAAUUCUCGGGUGCCAA
Target sequence (chain): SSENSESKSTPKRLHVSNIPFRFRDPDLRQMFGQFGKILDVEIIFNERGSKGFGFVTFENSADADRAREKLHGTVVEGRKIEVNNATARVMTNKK
UUCUGGACAGCAAUGGAUAUUUUACUAAAAAGGAAGCUUUGAUUCCUUUUUCUCUAGGGAGAAGACAUUGUCUUGGAGAACAGCUGGCUCGAAUGGAAAUGUUCUUGUUU: 0.292
AAAAAAUAAAAUAAUGUGAAGCAAAACCAACUAAAAAGUGAUUCUUGCACAUGAACUGUCACAUGUUUAAAAAUGUGUUUUUUAGAGAGCCUCAGUCUUACUGAUUUCAA: 0.401
UCAAGGGCUGUAAAAUAUGAACUACUUAGGGUCGUUUGCCUUCCAUGGGAACUUGGCUAGACUUAGAAAAAGCUGUUUGUUGUGCUAAUGUAAAAGUGUCAUACAAUUUA: 2.44
CACAACCUGAAUUCACCACAGCUGGAAUAGCUGUGGAAAACAAAAUAAAACAACAAAAUUAAUAAUGAAAUGGAGGGGAAUUCUAGAAUUAUAUGCUAAAUGCAUAUUUU: 1.18
CAGCUCCAUGAUUCCCAGUGGGGCCCAAGCCAGGCCAAGGUGCAGUCAGUUAAUAGCAUUGGGACAGUCAUUGUAAUGGUGCUGUUACCAGUCGACACCAUUGUGUUUGA: 0.246
UCACAGUGUGGUCAGGGCUGCGCGUGCUGGAGGCCCUCCUGCCUGGGCCUUGUGGGGCAAAUAUUGGGUCCCCAGGCUGGAAAGAUGGACAGAGGCCCAAUGGGUGAAGG: 1.05
GUGGAAGACUACCUACAUUAGCUAUGCAUUUCAAGAGCUCACACUUAUAUUGUGGCAUAUAGUCAACAUGGAAGUAGACCAGCUCUGCUGAUUUGAAAUUUAGAUUUUUU: 0.319
CCUCUCCUGUCCCCGCCGGGCAGUGUCACUGAGUCCUUGAAAUCCUCCCCUGCCCCGCGGGUCUCUGGAUUGGGACGCACAGUGCAGUUGAGGUCUGCGUCGGGCUUGGC: 0.373

A few entries again (sample 1):
ACCAUGCAGGUGGGCAUCUUUGGGAAGUAAAGCAAGGGGGGGAUAGGGAGGGGGGUAACACUUUGGGAACAGGUGGUCCCAGGUCGUUUC: 1.19
CCUCAAGUCCUGUGCUACACAUCGUAUGUACCGAAUCGGCGGGGCGGCGGGGAAAGUAUUAUGUUACGCCGUUCGGAUCUGCACUUCCAG: -0.116
UCAAGUCCUGUGCUACACAUCGUAUGUACCGAAUCGGGGCCGGCCGGGGCCGGGAAAGUAUUAUGUUACGCCGUUCGGAUCUGCACUUCC: 0.00651
CAGAACGAUCGAUACAGAAACCACGCUGCCGCCACCACACCAUCACCAUCGACAGAACAGUCCUUAAUCCAGAAACCUGAAAUGAAGGAA: 1.23
AGUCCUGUGCUACACAUCGUAUGUACCGAAUCGGGGAAAGGGGAGGGGUUUUUGGGGAAAGUAUUAUGUUACGCCGUUCGGAUCUGCACU: -0.321
CAAGUCCUGUGCUACACAUCGUAUGUACCGAAUCGGUGGAAAAAGGUUUUUUUGGAAAGUAUUAUGUUACGCCGUUCGGAUCUGCACUUC: -1.83
CUGUGCUACACAUCGUAUGUACCGAAUCGGGGUUUUUGGGGAAAAAAAGGGGAAAAAGGGGAAAGUAUUAUGUUACGCCGUUCGGAUCUG: -0.492
GUGCUACACAUCGUAUGUACCGAAUCGGGGUUUUUUUGGGGAAAAAAAGGGGUUUUUUUGGGGAAAGUAUUAUGUUACGCCGUUCGGAUC: -2.61
